# Assay results of several laboratories.
# Numbered parts are unrelated; each lists some results of a single study.

# Study 1 — technique: RNA Bind-n-Seq; molecule type: RNA; matrix: in vitro; concentration: 365 nM; reference: no-protein control; reading: higher = stronger binding
# Target: RNA binding protein fox-1 homolog 2, RRM domain, GST-SBP tag (RBFOX2, Homo sapiens, UniProt O43251-10, residues 100-194)
# Notes: natural RNA segment, single round, ends assumed
# Constant ends, left off below: GGGAGUUCUACAGUCCGACGAUC … UGGAAUUCUCGGGUGCCAA
# Residues (chain): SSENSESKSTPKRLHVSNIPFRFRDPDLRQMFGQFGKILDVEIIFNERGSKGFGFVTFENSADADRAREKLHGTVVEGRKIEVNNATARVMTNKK
Oligonucleotide,RBNS enrichment (R)
UCUAUAAAUGUGUAAUGUGAUGAAGAAAGAGAUCUUUCUUUUUUAAUGAAAACAUUAAUGUGUUAAUACCCUGUAUGGAUAAUGCUUGACAUUUAGUGGUUUCCAAAAUA,0.339
CAAAGUCAAGUUUGGGGAAAAGGCAGACUAAGGCCUCCUUUCUCUGACCUCCCAGGAAGAAAAUAGCUUCUCCUACAGUGAUUCAUGUCCCAGGUCCAGGAAAUCCAAUG,0.245
UUUUUGGUAGAUCGUGGUAGAUCUGGUACUCCUAACUCCCUGGUCCUCAGGCGGCUCCUCUGUAAAAUGAGAAAAUGUAUAUUUUUUUACUUCAUGAGAUCUUUGCUGGA,0.316
CAGCCUUCCCCACCAAGUCUAAAAAGACCUGGCCUUUCACUUUUAGUUGGCAUUUGUUAUCCUCUUGUAUACUUGUAUUCCCUUAACUCUAACCCUGUGGAAGCAUGGCU,0.607
AAAAAGCACAGAGAAAUGUUUAACUGUUUGACUCUUAUGAUACUUCUUGGAAACUAUGACAUCAAAGAUAGACUUUUGCCUAAGUGGCUUAGCUGGGUCUUUCAUAGCCA,0.336
UUAUAUCAUGACAUACAAAUGGAUUUACGUAUUUGACUGAAAUGAAAGUUCCACUAAACGGUAUUUGCUCUUGUGAUAUGUGGCACAUUGUGAUAUUUUCUUAGUCUGUU,0.608
GGAUAUCUUUUCGCCUCAGACAGCUCUUCGAUUGCUCAUACAGAACAAUUCUGCCGGUGCUGAAGUACCAAGAAUGUUUUCAUUUGCAUUUUCCUGGUUAAGAAAUCUGU,0.296
UCUAGAAGAUUGAGAAGUGCAUAUGACAGGCUGAGAGCACCUCCCCAAACACACAAGCUCUCAGCCACAGGCAGCUUCUCCACAGCCCCAGCUUCGCACAGGCUCCUGGA,1.03

# Study 2 — technique: RNA Bind-n-Seq; molecule type: RNA; matrix: in vitro; concentration: 1 µM; notes: whole 134-nt RNA, ends assumed; with: 150 mM KCl; reference: input library; reading: higher = stronger binding
# Target: Ras GTPase-activating protein-binding protein 1, C-terminal RGG region (G3BP1, Homo sapiens, UniProt Q13283)
# UniProt Q13283, sequence (whole entry, looked up): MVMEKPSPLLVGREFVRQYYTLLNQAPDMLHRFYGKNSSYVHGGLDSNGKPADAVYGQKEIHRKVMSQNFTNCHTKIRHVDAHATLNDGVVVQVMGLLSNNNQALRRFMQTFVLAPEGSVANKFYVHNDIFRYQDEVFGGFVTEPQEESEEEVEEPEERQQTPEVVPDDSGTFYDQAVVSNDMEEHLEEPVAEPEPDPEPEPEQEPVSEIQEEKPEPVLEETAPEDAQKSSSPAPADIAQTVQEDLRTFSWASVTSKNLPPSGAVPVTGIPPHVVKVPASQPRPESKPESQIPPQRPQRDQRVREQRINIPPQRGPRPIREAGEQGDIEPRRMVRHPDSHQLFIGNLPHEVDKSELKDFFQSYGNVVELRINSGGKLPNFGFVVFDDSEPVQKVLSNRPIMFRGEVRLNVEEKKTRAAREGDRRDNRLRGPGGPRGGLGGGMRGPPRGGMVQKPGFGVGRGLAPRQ
# Constant ends, left off below: GGGAGUUCUACAGUCCGACGAUC … UGGAAUUCUCGGGUGUCAAGG
Oligonucleotide,log2 enrichment
GCGGACCGAGAAAGUCGUUACGAGGAAGAAGAAGAACAAAGUCGAAGUAUGAGCCGGAAGAGGAAGGCAUCUGUGCACAGUUCGGGCCGU,0.0141
UAACUUUAGAGGAGGAUCUGAUGGAUAUGGCAGUGGACGUGGAUUUGGGGAUGGCUAUAAUGGGUAUGGAUGAGGACCUGGAGGUGGCAA,-0.587
CUCAAGUCCUGUGCUACACAUCGUAUGUACCGAAUCGGGGCGGGGCGGGCGGGAAAGUAUUAUGUUACGCCGUUCGGAUCUGCACUUCCA,2.03
AAGUCCUGUGCUACACAUCGUAUGUACCGAAUCGGGGAAAGGGGUGGGGUUUGGGGAAAGUAUUAUGUUACGCCGUUCGGAUCUGCACUU,1.76
UCAAGUCCUGUGCUACACAUCGUAUGUACCGAAUCGGAAGGGGAAGGGGAAGGGGAAAGUAUUAUGUUACGCCGUUCGGAUCUGCACUUC,1.22
GUCCUGUGCUACACAUCGUAUGUACCGAAUCGGGGUUUGGGGUUUGGGGUUUUUGGGGAAAGUAUUAUGUUACGCCGUUCGGAUCUGCAC,3.73
CAAGUCCUGUGCUACACAUCGUAUGUACCGAAUCGGCCCGGGGCCCGGGGCCCGGAAAGUAUUAUGUUACGCCGUUCGGAUCUGCACUUC,-1.98
GCAGGAAGUAAAAACAAAUGGAAAUGCUUCGGAUAGUUGCAGGGGUGGGGGUUGCUAAGGAAAGGGUGGGAUGGGAGUGGGUAAAGAGUU,0.543
UCCUGUGCUACACAUCGUAUGUACCGAAUCGGGGUUUUUUGGUUUUUUGGUUUUUUGGGGAAAGUAUUAUGUUACGCCGUUCGGAUCUGC,-1.13

# Study 3 — technique: protein-binding microarray; molecule type: double-stranded DNA, one strand shown; matrix: in vitro; concentration: 250 nM; notes: 60-bp whole probe; with: salmon DNA 0.4 mg/ml; reference: random background probes; reading: higher = stronger binding; constant ends, left off below: GCCTAGCAC … GTCTTGATTCGCTTGACGCTGCTG
# Target: Interferon regulatory factor 7, full length, phosphomimetic (IRF7, Homo sapiens, UniProt Q92985, residues 1-503, S101K/S471D/S472D/S475D/S476D/S477D/S483D/S484D/S487D)
# Target sequence (chain): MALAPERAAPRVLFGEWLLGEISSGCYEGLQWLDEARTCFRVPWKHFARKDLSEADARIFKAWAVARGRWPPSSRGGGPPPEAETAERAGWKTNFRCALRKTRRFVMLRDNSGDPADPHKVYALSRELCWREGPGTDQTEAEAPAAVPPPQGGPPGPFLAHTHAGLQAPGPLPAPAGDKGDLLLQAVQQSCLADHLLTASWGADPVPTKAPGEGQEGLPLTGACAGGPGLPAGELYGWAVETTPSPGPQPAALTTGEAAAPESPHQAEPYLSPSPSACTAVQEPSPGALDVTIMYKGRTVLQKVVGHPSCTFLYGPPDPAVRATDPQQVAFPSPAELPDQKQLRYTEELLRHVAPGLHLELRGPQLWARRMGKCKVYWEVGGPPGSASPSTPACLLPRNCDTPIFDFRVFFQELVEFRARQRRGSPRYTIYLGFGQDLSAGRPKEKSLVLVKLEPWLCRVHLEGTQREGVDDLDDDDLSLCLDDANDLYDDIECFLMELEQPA
Oligonucleotide,log fluorescence [z-score]
TTAGGTATCGGTTCCGGTTAGTGCTAG,3.96
TTAGGACCGCTTATCCTTTAGTGCTAG,0.93
TTAGATTCTAGTTTCGATTAGTGCTAG,11.2
GTCGATATCAGTATCGAGACGTGCTAG,0.523
GACGGTATCTACACTGGGGACGTGCTA,-0.118
TTAGGTCCCCTTCTCCTTTAGTGCTAG,1.09
GGCCTCTCTGTTTTCCTGTTGTGCTAG,0.984
GACGGTTTCGTTATCCTGACGTGCTAG,12.1
GACGATATAGGGTTTCGAGACGTGCTA,1.99
TTTTTTTTCATCATTGCCTGGTGCTAG,0.792
GTAGTAATGAATATAATACCGTGCTAG,-0.284
TCAACTTTAAATTAGACACTGTGCTAG,0.00672
GACGATCTCAATTTCGAGACGTGCTAG,0.56
TTAGATGTCGGGACTGGATTAGTGCTA,-0.0958
GACGGCCTCGGTTTCGGGACGTGCTAG,4.17
TTGGGTTTCCTTCTCCTTTAGTGCTAG,1.71
TTAGGCCTCGGTATCGGTTAGTGCTAG,1.92
CTAATATTGAGACTCATGGGGTGCTAG,1.14
TTATGACTGGGTTTCGGTTAGTGCTAG,6.36

# Study 4 — technique: protein binding microarray; molecule type: double-stranded DNA, one strand shown; matrix: in vitro; concentration: not given; reference: not given; reading: higher = stronger binding
# Target: Histone acetyltransferase KAT6A, both winged helices, GST fusion (KAT6A, Homo sapiens, UniProt Q92794, residues 1-181)
# Notes: 8-mer, flanks averaged, mean of 2 arrays, mostly near background
# Target sequence (chain): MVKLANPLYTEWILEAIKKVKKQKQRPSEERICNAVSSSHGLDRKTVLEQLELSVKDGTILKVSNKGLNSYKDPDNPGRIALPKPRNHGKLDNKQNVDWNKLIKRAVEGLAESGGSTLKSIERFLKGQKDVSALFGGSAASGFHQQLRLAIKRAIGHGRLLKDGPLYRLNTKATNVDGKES
Oligonucleotide,E-score
AGGTAATG,-0.111
CCCGCTAC,0.211
GAGCTGGC,-0.143
GGTGGGGA,-0.163
GGCACGGA,0.183
CTGCCTCA,-0.195
CTCTATCC,0.00554
CCCTAGAG,-0.179
CCTGAAAC,0.0755
CTCTCTTA,-0.301
CGTCATGA,0.108
GAACGTAA,0.00156
ACGATCCT,-0.15
ATGAGAGA,-0.0906
ACTTCTTA,-0.135
CTTAGAAC,-0.101
TGCATCAA,-0.0853
ATTAGTTG,-0.065
AGTCCAGC,-0.0881
AGGACTTG,-0.195
CAGTGTCC,-0.045

# For quick reference, copied from above (study 4):
Oligonucleotide,E-score
ACTTCTTA,-0.135
CTTAGAAC,-0.101
TGCATCAA,-0.0853
